Experimental data collected from several papers.
Each line is one published result; not all experiments were run side by side.
Organism: Leishmania infantum
Observed: parasite growth

C[C@@H]1[C@H](O)[C@@H](C)/C=C/C=C/C=C/C=C/C=C/C=C/C=C/[C@H](O[C@@H]2O[C@H](C)[C@@H](O)[C@H](N)[C@@H]2O)C[C@@H]2O[C@](O)(C[C@@H](O)C[C@@H](O)[C@H](O)CC[C@@H](O)C[C@@H](O)CC(=O)O[C@H]1C)C[C@H](O)[C@H]2C(=O)O  EC50 (J774; 24 h, intracellular, amastigote): 100 nM
O=C(NCCCCNCCCNC(=O)c1cc(Br)c(Br)o1)c1cc(Br)c(Br)o1  EC50 (MTT; 24 h, promastigote): ~20000 nM
C=C(C)c1cn([C@@H]2O[C@H](CO)[C@@H](O)[C@H]2O)c2ncnc(C)c12  EC50 (imaging; mouse Macrophage; 5 days, intracellular, amastigote): 790 nM
COc1cc([C@@H]2c3cc4c(cc3[C@H](O)[C@H]3COC(=O)[C@H]23)OCO4)cc(OC)c1OC  EC50 (mouse Splenocyte; 48 h, intracellular, amastigote): 13400 nM
O=C(NCCSCCNC(=O)c1cc(Br)c(Br)[nH]1)c1cc(Br)c(Br)[nH]1  EC50 (MTT; 24 h, promastigote): ~20000 nM
C=Cc1cn([C@@H]2O[C@H](CO)[C@@H](O)[C@H]2O)c2ncnc(C)c12  EC50 (imaging; mouse Macrophage; 5 days, intracellular, amastigote): > 64000 nM
O=C(CN1C(=O)Cc2c([nH]c3ccc(Br)cc23)-c2ccc(Cl)cc21)N1CCOCC1  EC50 (J774; 24 h, intracellular, amastigote): 500 nM
Cc1ncnc2c1c(C#CC1CC1)cn2[C@@H]1O[C@H](CO)[C@@H](O)[C@H]1O  EC50 (imaging; mouse Macrophage; 5 days, intracellular, amastigote): > 64000 nM
CCCCCCCCCCCCCCCCOP(=O)([O-])OCC[N+](C)(C)C  EC50 (mouse Splenocyte; 48 h, intracellular, amastigote): 2400 nM
C[C@@H]1[C@H](O)[C@@H](C)/C=C/C=C/C=C/C=C/C=C/C=C/C=C/[C@H](O[C@@H]2O[C@H](C)[C@@H](O)[C@H](N)[C@@H]2O)C[C@@H]2O[C@](O)(C[C@@H](O)C[C@@H](O)[C@H](O)CC[C@@H](O)C[C@@H](O)CC(=O)O[C@H]1C)C[C@H](O)[C@H]2C(=O)O  EC50 (72 h, promastigote): 770 nM
